Experimental data pooled from the literature.
A part holds a random share of what one study measured. Values joined by “and” are separate records of one study, mostly repeats; a detail may differ.
Chain of UniProt Q15418 (whole entry, looked up): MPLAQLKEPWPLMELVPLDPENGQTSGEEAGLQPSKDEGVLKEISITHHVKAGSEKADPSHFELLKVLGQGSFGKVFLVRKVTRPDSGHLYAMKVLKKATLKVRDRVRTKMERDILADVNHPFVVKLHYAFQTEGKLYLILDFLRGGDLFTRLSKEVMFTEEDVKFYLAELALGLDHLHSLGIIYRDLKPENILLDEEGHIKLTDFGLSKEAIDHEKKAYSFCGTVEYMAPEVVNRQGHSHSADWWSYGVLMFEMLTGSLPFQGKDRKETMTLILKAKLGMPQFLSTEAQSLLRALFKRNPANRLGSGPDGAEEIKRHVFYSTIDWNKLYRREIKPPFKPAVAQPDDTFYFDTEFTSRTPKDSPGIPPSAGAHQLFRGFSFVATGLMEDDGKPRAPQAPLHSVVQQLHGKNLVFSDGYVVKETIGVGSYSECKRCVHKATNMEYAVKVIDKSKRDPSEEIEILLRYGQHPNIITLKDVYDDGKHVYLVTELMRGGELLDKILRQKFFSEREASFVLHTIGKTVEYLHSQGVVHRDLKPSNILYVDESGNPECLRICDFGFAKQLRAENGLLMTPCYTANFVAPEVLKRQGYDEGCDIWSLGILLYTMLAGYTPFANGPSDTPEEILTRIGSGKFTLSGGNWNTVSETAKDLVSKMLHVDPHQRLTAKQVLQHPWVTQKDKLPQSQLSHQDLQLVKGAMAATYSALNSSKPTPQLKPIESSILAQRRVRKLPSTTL
Chain of UniProt Q9Y2K2 (whole entry, looked up): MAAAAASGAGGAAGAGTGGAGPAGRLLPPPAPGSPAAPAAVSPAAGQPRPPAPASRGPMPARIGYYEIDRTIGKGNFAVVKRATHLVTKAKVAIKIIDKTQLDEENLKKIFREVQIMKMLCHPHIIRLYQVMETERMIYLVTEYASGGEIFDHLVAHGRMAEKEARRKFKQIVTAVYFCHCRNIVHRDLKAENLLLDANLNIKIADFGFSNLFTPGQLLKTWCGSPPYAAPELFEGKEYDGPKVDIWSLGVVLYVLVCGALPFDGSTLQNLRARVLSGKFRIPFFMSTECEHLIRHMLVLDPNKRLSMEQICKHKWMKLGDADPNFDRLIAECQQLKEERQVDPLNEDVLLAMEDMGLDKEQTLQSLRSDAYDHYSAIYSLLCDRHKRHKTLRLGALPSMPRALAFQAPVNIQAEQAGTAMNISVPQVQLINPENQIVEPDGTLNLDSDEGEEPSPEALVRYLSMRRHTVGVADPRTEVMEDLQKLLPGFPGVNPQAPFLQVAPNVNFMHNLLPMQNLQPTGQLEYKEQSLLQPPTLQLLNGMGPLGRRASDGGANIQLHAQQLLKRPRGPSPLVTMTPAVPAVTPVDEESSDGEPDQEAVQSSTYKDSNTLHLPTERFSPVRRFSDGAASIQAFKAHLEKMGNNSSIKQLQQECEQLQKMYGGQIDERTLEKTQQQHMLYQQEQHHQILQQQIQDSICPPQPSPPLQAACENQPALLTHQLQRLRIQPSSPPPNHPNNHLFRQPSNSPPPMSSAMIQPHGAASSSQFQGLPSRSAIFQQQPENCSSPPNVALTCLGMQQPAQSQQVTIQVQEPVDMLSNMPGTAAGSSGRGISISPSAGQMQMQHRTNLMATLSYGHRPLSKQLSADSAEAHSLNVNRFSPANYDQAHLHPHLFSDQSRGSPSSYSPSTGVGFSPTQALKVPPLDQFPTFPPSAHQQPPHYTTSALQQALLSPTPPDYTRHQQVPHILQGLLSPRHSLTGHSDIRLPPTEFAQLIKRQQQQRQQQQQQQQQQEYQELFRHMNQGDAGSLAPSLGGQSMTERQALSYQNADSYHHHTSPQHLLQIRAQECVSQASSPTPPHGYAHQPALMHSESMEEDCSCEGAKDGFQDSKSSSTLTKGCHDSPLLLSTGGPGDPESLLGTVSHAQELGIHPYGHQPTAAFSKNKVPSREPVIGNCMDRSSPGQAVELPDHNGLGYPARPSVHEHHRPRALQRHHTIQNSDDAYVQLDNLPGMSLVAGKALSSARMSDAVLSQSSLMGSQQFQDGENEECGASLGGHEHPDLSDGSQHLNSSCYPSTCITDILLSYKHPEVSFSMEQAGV
Chain of UniProt Q8N5S9 (whole entry, looked up): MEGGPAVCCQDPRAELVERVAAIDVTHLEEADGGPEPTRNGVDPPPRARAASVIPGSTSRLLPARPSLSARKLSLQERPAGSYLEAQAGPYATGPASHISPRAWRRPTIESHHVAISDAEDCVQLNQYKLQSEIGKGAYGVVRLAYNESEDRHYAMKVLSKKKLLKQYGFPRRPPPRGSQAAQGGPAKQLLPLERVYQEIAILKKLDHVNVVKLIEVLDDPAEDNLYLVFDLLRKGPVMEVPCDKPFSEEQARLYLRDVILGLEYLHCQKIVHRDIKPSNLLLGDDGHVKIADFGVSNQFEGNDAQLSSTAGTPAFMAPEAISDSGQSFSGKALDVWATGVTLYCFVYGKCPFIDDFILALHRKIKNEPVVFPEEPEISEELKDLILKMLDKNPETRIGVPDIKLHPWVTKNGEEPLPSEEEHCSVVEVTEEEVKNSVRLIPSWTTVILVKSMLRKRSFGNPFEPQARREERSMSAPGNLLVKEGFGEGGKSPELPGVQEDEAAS
Chain of UniProt Q06187 (whole entry, looked up): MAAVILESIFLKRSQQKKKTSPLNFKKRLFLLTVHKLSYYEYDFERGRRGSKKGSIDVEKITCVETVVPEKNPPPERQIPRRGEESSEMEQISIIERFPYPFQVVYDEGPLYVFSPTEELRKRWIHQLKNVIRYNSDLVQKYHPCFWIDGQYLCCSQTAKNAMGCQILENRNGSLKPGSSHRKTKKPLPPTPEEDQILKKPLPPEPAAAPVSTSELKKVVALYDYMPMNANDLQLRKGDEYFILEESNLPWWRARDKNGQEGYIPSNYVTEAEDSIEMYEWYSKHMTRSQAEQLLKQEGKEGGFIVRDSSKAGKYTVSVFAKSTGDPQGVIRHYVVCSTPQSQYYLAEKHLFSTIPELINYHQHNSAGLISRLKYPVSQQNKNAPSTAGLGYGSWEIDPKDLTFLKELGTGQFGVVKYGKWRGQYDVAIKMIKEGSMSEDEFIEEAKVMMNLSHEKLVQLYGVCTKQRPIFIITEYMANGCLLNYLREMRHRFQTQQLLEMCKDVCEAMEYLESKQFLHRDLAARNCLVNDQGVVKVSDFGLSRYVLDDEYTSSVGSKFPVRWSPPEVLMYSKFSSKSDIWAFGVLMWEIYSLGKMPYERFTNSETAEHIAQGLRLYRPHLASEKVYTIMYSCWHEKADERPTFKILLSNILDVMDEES
Chain of UniProt Q16539 (whole entry, looked up): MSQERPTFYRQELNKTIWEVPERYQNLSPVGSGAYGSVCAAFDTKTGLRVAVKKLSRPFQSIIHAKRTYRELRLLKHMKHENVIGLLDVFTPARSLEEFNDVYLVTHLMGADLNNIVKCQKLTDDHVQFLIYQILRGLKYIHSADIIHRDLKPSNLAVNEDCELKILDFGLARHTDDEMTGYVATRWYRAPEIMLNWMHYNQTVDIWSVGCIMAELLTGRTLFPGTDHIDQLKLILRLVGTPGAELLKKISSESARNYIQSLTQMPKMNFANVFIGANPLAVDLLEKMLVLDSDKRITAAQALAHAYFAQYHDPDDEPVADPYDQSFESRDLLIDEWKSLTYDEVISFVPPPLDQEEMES

Study 1
Target: Mitogen-activated protein kinase kinase kinase 9 (MAP3K9, Homo sapiens, UniProt P80192)
Chain of UniProt P80192 (whole entry, looked up): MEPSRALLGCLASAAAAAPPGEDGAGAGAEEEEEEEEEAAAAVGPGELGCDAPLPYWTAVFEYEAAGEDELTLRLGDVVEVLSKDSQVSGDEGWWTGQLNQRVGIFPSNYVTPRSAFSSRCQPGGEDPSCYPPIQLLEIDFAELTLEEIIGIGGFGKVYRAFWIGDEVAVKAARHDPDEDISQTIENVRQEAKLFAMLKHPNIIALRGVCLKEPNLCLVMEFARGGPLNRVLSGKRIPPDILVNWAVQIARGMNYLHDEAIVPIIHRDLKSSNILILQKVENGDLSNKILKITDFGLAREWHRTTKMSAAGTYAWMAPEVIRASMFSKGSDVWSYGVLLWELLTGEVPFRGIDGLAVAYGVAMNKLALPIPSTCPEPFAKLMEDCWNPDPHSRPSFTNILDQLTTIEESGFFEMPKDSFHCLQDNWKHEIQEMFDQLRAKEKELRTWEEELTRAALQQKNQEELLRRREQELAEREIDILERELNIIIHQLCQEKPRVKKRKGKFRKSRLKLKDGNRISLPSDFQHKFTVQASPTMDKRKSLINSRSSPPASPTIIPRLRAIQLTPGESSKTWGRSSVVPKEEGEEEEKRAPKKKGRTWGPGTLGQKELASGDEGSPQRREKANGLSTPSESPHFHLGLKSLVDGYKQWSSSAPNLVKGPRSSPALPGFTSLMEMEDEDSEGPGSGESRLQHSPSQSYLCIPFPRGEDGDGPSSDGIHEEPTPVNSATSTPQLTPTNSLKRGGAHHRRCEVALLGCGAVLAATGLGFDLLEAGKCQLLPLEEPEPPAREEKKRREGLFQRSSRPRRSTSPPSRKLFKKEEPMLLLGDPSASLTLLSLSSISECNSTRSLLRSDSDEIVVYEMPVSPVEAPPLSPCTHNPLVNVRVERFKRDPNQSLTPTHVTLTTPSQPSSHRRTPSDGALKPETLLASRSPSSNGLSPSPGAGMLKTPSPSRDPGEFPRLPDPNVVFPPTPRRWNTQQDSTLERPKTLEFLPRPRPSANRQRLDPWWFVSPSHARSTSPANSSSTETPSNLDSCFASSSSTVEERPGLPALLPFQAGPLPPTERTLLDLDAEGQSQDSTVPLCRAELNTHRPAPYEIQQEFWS
Effect on: enzyme activity
Action: inhibitor
Concentration: 0.5 µM
Reference: control
| Structure (SMILES) | remaining activity |
| --- | --- |
| CNC(=O)c1cc(Oc2ccc(NC(=O)Nc3ccc(Cl)c(C(F)(F)F)c3)cc2)ccn1 | 103% |
| O=C1NC(=O)C(c2cn(CCCO)c3ncccc23)=C1c1cnccn1 | 85.5% |
| O=C1NC(=O)C(c2cn(CCCn3ccnc3)c3ccccc23)=C1Nc1ccccc1 | 30.6% |
| COc1ccc(OC)c2c(=S)c3ccccc3[nH]c12 | 102% |
| CCOC(=O)c1c(C)[nH]c(/C=C2\C(=O)Nc3ccccc32)c1C | 61.6% |
| N#CC(C#N)=C(N)/C(C#N)=C/c1ccc(O)cc1 | 94.4% |
| Cc1nc(-c2ccccc2)c(-c2ccncc2)o1 | 79.4% |
| CN(C)c1ccc(C=C2C(=O)Nc3ccccc32)cc1 | 90.2% |
| Cc1cccc(-c2[nH]c(C(C)(C)C)nc2-c2ccc3c(c2)OCO3)n1 | 94% |
| Nc1[nH]nc2nc3ccccc3nc12 | 97.7% |
| CO[C@H]1C[C@@H]2CC[C@@H](C)[C@@](O)(O2)C(=O)C(=O)N2CCCC[C@H]2C(=O)O[C@H]([C@H](C)C[C@@H]2CC[C@@H](O)[C@H](OC)C2)CC(=O)[C@H](C)/C=C(\C)[C@@H](O)[C@@H](OC)C(=O)[C@H](C)C[C@H](C)/C=C/C=C/C=C/1C | 87.3% |
| O=C(O)c1ccc2c3c1cccc3c(=O)n1c3ccccc3nc21 | 64.4% |
| NCCNc1ncc(C(N)=O)c(Nc2cccc(C(F)(F)F)c2)n1 | 44.7% |
| Cc1ccc(NC(=O)c2ccc(CN3CCN(C)CC3)cc2)cc1Nc1nc(-c2cccnc2)cs1 | 104% |
| COc1cc2ncnc(Nc3ccc(F)c(Cl)c3)c2cc1OCCCN1CCOCC1 | 110% |
| Nc1ccc2ncnc(NCCc3ccc(Oc4ccccc4)cc3)c2c1 | 103% |

Study 2
Organism: Sarcocystis neurona
Effect on: parasite growth
Concentration: 10 µM
Time: 96 h
Notes: secondary screen
| SMILES | inhibition |
| --- | --- |
| C[C@]12C=CC(=O)C=C1CC[C@@H]1[C@@H]2C(=O)C[C@@]2(C)[C@H]1CC[C@]2(O)C(=O)CO | -17.6% |
| Cc1ccsc1C(=CCCN1CCC[C@@H](C(=O)O)C1)c1sccc1C | -31.4% |
| CCN(CC)CCNC(=O)c1ccc(N)cc1 | -10.4% |
| O=C(O)c1cc(/N=N/c2ccc(S(=O)(=O)Nc3ccccn3)cc2)ccc1O | -29.4% |
| CCN(CC)CCOC(=O)c1ccc(N)cc1 | -5.1% |
| CC(C)[C@H](N)C(=O)OCCOCn1cnc2c(=O)[nH]c(N)nc21 | -24.1% |
| COc1ccccc1OCC(O)CN1CCN(CC(=O)Nc2c(C)cccc2C)CC1 (stereo not shown) | -17.2% |
| CCCc1c(OCCCCc2nnn[nH]2)ccc(C(C)=O)c1O | -20.4% |
| O=C1c2c(O)cc(O)cc2OC(c2ccc(O)c(O)c2)C1O (stereo not shown) | -8.1% |
| CN(C)CCc1c[nH]c2ccc(C[C@H]3COC(=O)N3)cc12 | -22.9% |
| CC1(C)O[C@@H]2C[C@H]3[C@@H]4C[C@H](F)C5=CC(=O)C=C[C@]5(C)[C@@]4(F)[C@@H](O)C[C@]3(C)[C@]2(C(=O)CO)O1 | -28.8% |
| Cc1cc(NS(=O)(=O)c2ccc(N)cc2)no1 | -11.3% |
| Cc1cccc(Nc2ccncc2S(=O)(=O)NC(=O)NC(C)C)c1 | -13.4% |
| COc1ccc(OC)c(C(O)CNC(=O)CN)c1 (stereo not shown) | -16.9% |

Study 3
SMILES: Cn1nc(C(F)(F)F)cc1-c1cnc(N2CCc3cc(S(=O)(=O)Nc4c(F)cc(Cl)cc4F)cc(N4CCCC4=O)c32)nc1
Effect on: cell-free assay
Technique: competition with immobilised ligand
Concentration: 1 µM
| target | remaining binding |
| --- | --- |
| Calcium/calmodulin-dependent protein kinase kinase 1 (CAMKK1, Homo sapiens, UniProt Q8N5S9) | 98% |
| Mitogen-activated protein kinase 10 (MAPK10, Homo sapiens, UniProt P53779) | 100% |
| Mitogen-activated protein kinase 14 (MAPK14, Homo sapiens, UniProt Q16539) | 100% |
| Mitogen-activated protein kinase kinase kinase 9 (MAP3K9, Homo sapiens, UniProt P80192) | 100% |
| Protein kinase C eta type (PRKCH, Homo sapiens, UniProt P24723) | 90% |
| Serine/threonine-protein kinase mTOR (MTOR, Homo sapiens, UniProt P42345) | 78% |
| Ribosomal protein S6 kinase alpha-1, N-terminal kinase domain (RPS6KA1, Homo sapiens, UniProt Q15418) | 99% |
| Serine/threonine-protein kinase Nek9 (NEK9, Homo sapiens, UniProt Q8TD19) | 100% |
| Serine/threonine-protein kinase MARK2 (MARK2, Homo sapiens, UniProt Q7KZI7) | 100% |
| Serine/threonine-protein kinase SIK3 (SIK3, Homo sapiens, UniProt Q9Y2K2) | 94% |
| Ephrin type-B receptor 4 (EPHB4, Homo sapiens, UniProt P54760) | 99% |
| Phosphorylase b kinase gamma catalytic chain, skeletal muscle/heart isoform (PHKG1, Homo sapiens, UniProt Q16816) | 98% |
| Serine/threonine-protein kinase NIM1 (NIM1K, Homo sapiens, UniProt Q8IY84) | 80% |
| Hormonally up-regulated neu tumor-associated kinase (HUNK, Homo sapiens, UniProt P57058) | 68% |
| Serine/threonine-protein kinase TBK1 (TBK1, Homo sapiens, UniProt Q9UHD2) | 95% |
| Cyclin-dependent kinase 3 (CDK3, Homo sapiens, UniProt Q00526) | 91% |
| Tyrosine-protein kinase BTK (BTK, Homo sapiens, UniProt Q06187) | 85% |
| Serine/threonine-protein kinase pim-3 (PIM3, Homo sapiens, UniProt Q86V86) | 100% |
| Activin receptor type-1 (ACVR1, Homo sapiens, UniProt Q04771) | 85% |
| Serine/threonine-protein kinase PAK 4 (PAK4, Homo sapiens, UniProt O96013) | 100% |
| Interleukin-1 receptor-associated kinase 4 (IRAK4, Homo sapiens, UniProt Q9NWZ3) | 82% |
| High affinity nerve growth factor receptor (NTRK1, Homo sapiens, UniProt P04629) | 69% |
| Ribosomal protein S6 kinase alpha-1, C-terminal kinase domain (RPS6KA1, Homo sapiens, UniProt Q15418) | 96% |
| Tyrosine-protein kinase Fyn (FYN, Homo sapiens, UniProt P06241) | 94% |

Study 4
SMILES: CCC(=O)N1CCN(c2nc(OC[C@@H]3CCCN3C)nc3c2CCN(c2cccc4cccc(Cl)c24)C3)C[C@@H]1CC#N
Effect on: binding
Action: competitor
Technique: NanoBRET
Cell line: HEK293
KRAS G12D: GTPase KRas (KRAS, Homo sapiens, UniProt P01116, G12D)
| target | concentration | normalized BRET |
| --- | --- | --- |
| GTPase KRas (KRAS, Homo sapiens, UniProt P01116, G13D) | 1.24 µM | 47.1% and 52.1% and 46.1% |
| GTPase KRas (KRAS, Homo sapiens, UniProt P01116, Q61R) | 3.7 µM | 100% and 84.6% and 105% |
| KRAS G12D | 1.24 µM | 94.7% and 96.4% and 92.9% |
| KRAS G12D | 11.1 µM | 86.1% and 96.8% and 92.5% |
| KRAS G12D | 45.7 nM | 95.5% and 93.4% and 96% |
| GTPase KRas (KRAS, Homo sapiens, UniProt P01116, Q61L) | 11.1 µM | 27.9% and 30.3% and 29% |
| KRAS G12D | 15.2 nM | 102% and 107% and 96.8% |
